Published values gathered from unrelated publications.
Each line is one published result; not all experiments were run side by side. Values joined by “and” are separate records of one study, mostly repeats; a detail may differ. Numbers after ± are the reported error.

Compound | target or system | assay | system | setting | how to read | measurement | result
Oc1cc2c(cc1O)C(c1cccc3[nH]ccc13)NCC2 (centres unmarked) | – | DPPH scavenging, absorbance | – | 30 min, dark | – | IC50 | 20.8 µM
c1ccc(CN2Cc3cccc(n3)CN(Cc3ccccn3)Cc3cccc(n3)C2)nc1 | – | HPLC | water | 25 °C, Mn complex dissociation, together with: 25 equiv Zn2+ | – | transmetallation rate constant | 0.0017 s⁻¹
COc1cc([C@@H](O)[C@H](O)CO)ccc1O | – | DPPH radical scavenging | – | – | – | IC50 | 32.39 ± 0.18 µg/mL
CCCCCCCCCCCCCCCC(=O)OCC(CSC[C@H](N)C(=O)N[C@@H](CO)C(=O)N[C@@H](CCCCN)C(=O)N[C@@H](CCCCN)C(=O)N[C@@H](CCCCN)C(=O)N[C@@H](CCCCN)C(=O)NCCCCCC(=O)N[C@@H](CCCCN)C(=O)N[C@@H](CC(C)C)C(=O)N[C@H](C(=O)N[C@@H](Cc1ccccc1)C(=O)N[C@@H](Cc1ccccc1)C(=O)N[C@@H](Cc1ccc2ccccc2c1)C(=O)O)C(C)C)OC(=O)CCCCCCCCCCCCCCC (some centres unmarked) | – | OC antibody staining | APP/PS1 transgenic mouse, cortex | intracortical injection, dose not given, 5 d | reference: injected over adjacent area | Aβ plaque area ratio | 0.428 and 0.71 and 0.444 and 0.74 and 0.584 and 0.439 and 0.56
NNC(=O)Cc1ccccc1 | – | hydrazine ligation kinetics, absorbance | – | concentration not given, 40 s, together with: 2-formylphenylboronic acid | – | normalised absorbance | 0.72
COc1cc(O)ccc1CCC(c1ccc(O)cc1)c1cc2c(c(C)c1O)OC(c1ccc(O)cc1)CC2 (mixture of isomers) | – | item: 12-HEPE | human whole blood | 3 µM, together with: Escherichia coli | – | amount | 2810 ± 1290 pg/mL blood
COc1ccc(C2NCCc3cc(O)c(O)cc32)cc1 (centres unmarked) | – | DPPH scavenging, absorbance | – | 30 min, dark | – | IC50 | 24.4 µM
Cc1ccc(NC(=O)CCN2CCCCCC2)cc1C | – | locomotor activity in dark | Danio rerio larvae, 7 dpf, well of 10 larvae | 10 µM, minute 3, dark | – | third-quartile larval motion | 0.8 ± 0.6 pixels/frame
COc1cc2nc(N3CCN(C(=O)C4CCC5(CCOCC5)O4)CC3)nc(N)c2cc1OC (centres unmarked) | – | blood pressure | spontaneously hypertensive rat, male | oral, 3 mg/kg | – | time to maximum BP lowering | 120 min
CC(CCC(=O)NCc1ccc(C(=O)NO)cc1)C1CCC2C3C(O)CC4CC(O)CCC4(C)C3CCC12C (centres unmarked) | – | item: TUDCA | PCK rat (Pkhd1 mutant), bile | oral gavage, dose not given, 5 months | reference: total bile acids | relative abundance | 10.3%
Cc1ccc(C)c(OCC(O)CN2CCN(c3cc(Cl)ccc3C)CC2)c1 (centres unmarked) | – | locomotor activity in dark | Danio rerio larvae, 7 dpf, well of 10 larvae | 10 µM, minute 5, dark | – | third-quartile larval motion | 0.2 ± 0.2 pixels/frame
C[C@@H]1O[C@@H](OC[C@H]2O[C@@H](Oc3c(-c4ccc(O)cc4)oc4cc(O)cc(O)c4c3=O)[C@H](O[C@@H]3O[C@@H](C)[C@H](O)[C@@H](O)[C@H]3O)[C@@H](O)[C@@H]2O)[C@H](O)[C@H](O)[C@H]1O | – | Oil Red O | 3T3-L1, mouse | 5 µM, day 8 | reference: vehicle | lipid accumulation | 61.3 ± 8.5%
Cc1ccc(S(=O)(=O)NN)cc1 | – | hydrazine ligation kinetics, absorbance | – | concentration not given, 25 s, together with: 2-formylphenylboronic acid | – | normalised absorbance | 0.828
COc1ccc(N2CCN(CC(O)COc3ccc4ccccc4c3)CC2)cc1 (centres unmarked) | – | locomotor activity in dark | Danio rerio larvae, 7 dpf, well of 10 larvae | 10 µM, minute 3, dark | – | third-quartile larval motion | 4.7 ± 0.8 pixels/frame
COc1ccc(NC(=O)c2ccc3[nH]c(-c4ccc(N(C)C)cc4)nc3c2)cn1 | – | – | Lewis lung carcinoma, mice, syngeneic graft, subcutaneous | intraperitoneal, 25 mg/kg daily, day 7 | – | tumour volume | 563 mm3 and 542 mm3 and 367 mm3 and 506 mm3
O=C(NCC1OC2CCC=CCCC2O1)c1ccc(F)nc1 (centres unmarked) | – | IEDDA cycloaddition, substrate, stopped-flow spectrophotometry | water/methanol 45:55 | 0.5 mM, 298 K, together with: 3,6-di(2-pyridyl)-tetrazine 0.05 mM | – | observed rate constant kobs | 138 ± 2.88 s⁻¹
OC(COCC1COc2ccccc2O1)CN1CCN(c2ccccc2)CC1 (centres unmarked) | – | locomotor activity in dark | Danio rerio larvae, 7 dpf, well of 10 larvae | 10 µM, minute 1, dark | – | third-quartile larval motion | 4 ± 0.8 pixels/frame
CN1CCCNC(=O)c2cccc(c2)C(=O)NCCCN(C)CCCNc2cccc3c2C(=O)c2cccc(c2C3=O)NCCC1 | SAS | RNA-Seq, item: SRGAP3 mRNA | – | 1 µM, 6 h | reference: untreated cells | log2 fold change | 3.71

Compound | target or system | assay | system | setting | how to read | measurement | result
COC1CN([C@H]2CC[C@H]([C@@]3(C)Oc4c(Cl)cc(C(=O)NCc5c(SC)cc(C)[nH]c5=O)c(C)c4O3)CC2)C1 | – | RNA-seq, item: PLAG1 | human, whole blood | dose not given, 24 h | reference: pretreatment baseline | log2 fold change | 2.33
COc1ccccc1-c1ccncc1C(=O)Nc1nnc(OCc2ccc(Cl)cc2)s1 | – | – | Brca1 Δ11/Δ11 Polq-/- MEFs, mouse | 10 µM | – | colony survival | 73% and 93.9% and 82.2% and 54% and 76.1% and 56.9%
Cc1cccc(C)c1CNc1cc(C(=O)N2CCC2)cn2c(C)c(C)nc12 | – | gastric acid secretion | dog Heidenhain pouch | oral, 5 mg/kg, 24 h after dosing, together with: histamine | – | inhibition | 80.7%
COC(=O)C1CN1S(=O)(=O)c1ccc2cc(C)ccc2c1 (centres unmarked) | – | – | mouse, Lewis lung carcinoma | ip, 100 mg/kg, 288 h | – | tumour volume | 600 mm3
COCCNCCOc1cc(C)cc(C(C)C)c1 | – | locomotor activity in dark | Danio rerio larvae, 7 dpf, well of 10 larvae | 10 µM, minute 7, dark | – | third-quartile larval motion | 7 ± 0.7 pixels/frame
Nc1nc2cc(CC[C@H]3C[C@@H](n4ccc5c(N)ncnc54)[C@H](O)[C@@H]3O)ccc2cc1Br | – | – | mouse, NCI-H1048 xenograft | oral, 10 mg/kg, day 28, intermittent, qd x 28 | – | tumour growth inhibition | 77.1%
CC[C@H](C)[C@@H](C(=O)N[C@@H](CC(C)C)C(=O)N[C@@H](CO)C(=O)N[C@@H](CO)C(=O)N[C@H](C(=O)N[C@@H](CCC(=O)O)C(=O)N[C@H](C(=O)NCC(=O)N[C@@H](CO)C(=O)N[C@@H](CC(N)=O)C(=O)N[C@H](C(=O)N1CCC[C@H]1C(N)=O)[C@@H](C)O)C(C)C)[C@@H](C)O)N(C)C(=O)[C@H](C)NC(=O)CN(C)C(=O)[C@H](Cc1ccccc1)NC(=O)[C@H](CO)NC(=O)[C@H](CO)NC(=O)[C@H](CCCNC(=N)N)NC(=O)[C@H](Cc1c[nH]cn1)NC(=O)[C@H](CC(C)C)NC(=O)[C@H](Cc1ccccc1)NC(=O)[C@H](Cc1c[nH]cn1)NC(=O)[C@H](C)NC(=O)[C@H](CC(C)C)NC(=O)[C@H](CCCNC(=N)N)NC(=O)[C@H](CCC(=O)O)NC(=O)[C@@H](NC(=O)[C@H](C)NC(=O)[C@@H]1CSSC[C@H](NC(=O)[C@H](CCCNC(=N)N)NC(=O)CC[C@H](NC(=O)CCCCCCCCCCCCCCCCCCC(=O)O)C(=O)O)C(=O)NCC(=O)N[C@@H]([C@@H](C)O)C(=O)N[C@@H](C)C(=O)N[C@@H]([C@@H](C)O)C(=O)N1)[C@@H](C)O | – | – | male Sprague-Dawley rats | subcutaneous, 30 nmol/kg single dose, 96 h | – | body weight loss | 6.7 ± 0.4%
CCOC(=O)NN | – | hydrazine ligation kinetics, absorbance | – | concentration not given, 35 s, together with: 2-formylphenylboronic acid | – | normalised absorbance | 0.816
Cc1ncsc1-c1ccc(C(C)NC(=O)C2CC(O)CN2C(=O)C(NC(=O)CCCCCCCCCCN2CCCC(Nc3ncc(Cl)c(Nc4ccccc4S(=O)(=O)C(C)C)n3)C2)C(C)(C)C)cc1 (centres unmarked) | 22Rv1 | RNA-seq, item: PRDM11 mRNA | – | concentration not given | reference: DMSO | log2 fold change | -2.76
COc1cnc2cccc(N3CCc4c(cc(Cn5ccnc5)cc4-c4cn(C)nc4C(F)(F)F)C3=O)c2c1 | – | – | BALB/c nude mice, MV4-11 xenograft | intraperitoneal, 100 mg/kg, day 24 | – | tumour volume | 168 mm3 and 124 mm3 and 148 mm3 and 93 mm3 and 91 mm3
CC(=O)[O-].O.O.[O-]c1ccc(Br)cc1C=NCCN1CCOCC1.[Zn+2] | – | DPPH radical scavenging | – | 200 µM | – | inhibition | 52.4%
CCC(=O)N[C@@H](C)C(=O)OCC(=O)N[C@@H](C)C(=O)O | – | – | water | pH 5, 25 °C | – | chain scission rate constant | 0.0007 h⁻¹
CCOC(=O)C1=C(CSC2=NCCS2)NC(=O)NC1c1ccc(C)cc1 (centres unmarked) | – | DPPH scavenging | – | – | – | IC50 | 164 µM
NC[C@@H](C(=O)Nc1ccc(-c2cn[nH]c2)cc1)c1ccccc1 | – | tonometry | Macaca cyclopis, ocular normotensive | ocular, 0.03%, 56 h | – | IOP | 17.2 mmHg
CN1CCC[C@]1(C)/C=C/S(=O)(=O)NC(=O)Nc1c2c(cc3c1CCC3)CCC2 | – | – | human, whole blood ex vivo | 100 mg single dose, 6 h, single ascending dose, together with: LPS and ATP | – | IL-18 inhibition | 130%
O=Cc1ccc(CO)n1Cc1ccc(O)cc1 | – | DPPH radical | – | 300 µg/mL | – | radical scavenging | 44.9 ± 1.35%
CO[C@H]1CCN(Cc2c(C)cc(C)c3[nH]ccc23)[C@H](CO)C1 | – | alternative pathway C3b deposition, inhibitor | 50% mouse serum | – | – | IC50 | 1.3 ± 0.14 µM

Repeated from above:
Compound | target or system | assay | system | setting | how to read | measurement | result
COc1ccc(NC(=O)c2ccc3[nH]c(-c4ccc(N(C)C)cc4)nc3c2)cn1 | – | – | Lewis lung carcinoma, mice, syngeneic graft, subcutaneous | intraperitoneal, 25 mg/kg daily, day 7 | – | tumour volume | 563 mm3 and 542 mm3 and 367 mm3 and 506 mm3
Cc1ccc(NC(=O)CCN2CCCCCC2)cc1C | – | locomotor activity in dark | Danio rerio larvae, 7 dpf, well of 10 larvae | 10 µM, minute 3, dark | – | third-quartile larval motion | 0.8 ± 0.6 pixels/frame
COc1cc2nc(N3CCN(C(=O)C4CCC5(CCOCC5)O4)CC3)nc(N)c2cc1OC (centres unmarked) | – | blood pressure | spontaneously hypertensive rat, male | oral, 3 mg/kg | – | time to maximum BP lowering | 120 min
Cc1cccc(C)c1CNc1cc(C(=O)N2CCC2)cn2c(C)c(C)nc12 | – | gastric acid secretion | dog Heidenhain pouch | oral, 5 mg/kg, 24 h after dosing, together with: histamine | – | inhibition | 80.7%
COC(=O)C1CN1S(=O)(=O)c1ccc2cc(C)ccc2c1 (centres unmarked) | – | – | mouse, Lewis lung carcinoma | ip, 100 mg/kg, 288 h | – | tumour volume | 600 mm3
